Measurements pooled from the literature.
Each line is one published result; not all experiments were run side by side. Numbers after ± are the reported error.

| Structure (SMILES) | test | test system | conditions | how to read | endpoint | result |
| --- | --- | --- | --- | --- | --- | --- |
| COc1cc2c(NC3CCN(C(C)C)CC3)cc(N3CCOCC3)nc2cc1OCCCN1CCCC1 | – | 3xTg mice 12.25-month-old | dose not given, 6 weeks intermittent | – | time in open field centre | no effect |
| N[C@@H](CO)C(=O)N1CCC[C@H]1C(=O)NCC(=O)NCC(=O)O | diketopiperazine formation, transition state theory | 1-propanol | 70, 80, 90 °C, 0.5% acetic acid | – | ΔS‡ at 298.15 K | -72 ± 6 J/(mol·K) |
| Cc1cc2c(cc1C1(c3ncc(C(=O)O)cn3)CC1)C(C)(C)CCC2(C)C | RNA sequencing, measured: Mpeg1 | rat, brain | dose not given, 24 h | reference: vehicle | log2 fold change | 0.17 |
| COc1cc(/C=C/C(=O)OCCCC[P+](c2ccccc2)(c2ccccc2)c2ccccc2)ccc1O | immunoblotting | rat liver mitochondria | 10 µM, 15 min | reference: untreated | cytochrome c release | ~2.5 fold |
| C=C(c1ncc(C(=O)O)cn1)c1cc2c(cc1C)C(C)(C)CCC2(C)C | RNA sequencing, measured: Acot1 mRNA | rat, brain | dose not given, 24 h, single dose | reference: vehicle | log2 fold change | -0.93 |
| CC[C@H](C)[C@@H]1NC(=O)[C@H](Cc2ccccc2)NC(=O)[C@H](CCC(=O)O)NC(=O)[C@H](CCCNC(=N)N)NC(=O)CNC(=O)[C@@H](NC(=O)[C@H](CC(C)C)NC(=O)[C@H](CCCNC(=N)N)NC(=O)[C@@H](NC(=O)CNC(=O)[C@H](Cc2ccc(O)cc2)NC(=O)[C@@H]2CCCN2C(=O)[C@H](C)NC(=O)[C@H](C)NC(=O)[C@@H](N)CCCNC(=N)N)C(C)C)CSSC[C@@H]2NC(=O)[C@@H](NC(=O)[C@H](CO)NC(=O)[C@H](CO)NC(=O)[C@H](CO)NC(=O)[C@H](CC(C)C)NC(=O)CNC(=O)[C@H](C)NC(=O)[C@H](CC(C)C)NC(=O)[C@@H](NC(=O)[C@@H](N)CC(=O)O)C(C)C)CSSC[C@H](NC(=O)CNC(=O)[C@H](Cc3c[nH]c4ccccc34)NC(=O)[C@H](CCCCN)NC2=O)C(=O)N[C@@H](CO)C(=O)N[C@@H](CCCCN)C(=O)N[C@@H](CO)C(=O)N[C@@H](CCC(=O)O)C(=O)N[C@@H]([C@@H](C)CC)C(=O)N[C@@H](CO)C(=O)N[C@@H](CO)C(=O)N[C@@H](CC(C)C)C(=O)N[C@H](C(=O)O)CSSC[C@@H](C(=O)NCC(=O)NCC(=O)N[C@@H](CO)C(=O)N[C@@H](CCCNC(=N)N)C(=O)N[C@@H](Cc2c[nH]c3ccccc23)C(=O)O)NC(=O)[C@H]([C@@H](C)O)NC(=O)[C@H](Cc2ccccc2)NC(=O)[C@H]([C@@H](C)CC)NC(=O)[C@H](C(C)C)NC(=O)[C@H](C)NC(=O)[C@H](CCCNC(=N)N)NC1=O | repeated forced swim test | female Sprague-Dawley rats | intranasal daily, 275 µg/kg | reference: vehicle | swimming behaviour | no effect |
| COc1cc(CN2CCN(c3cccc(Cl)c3)CC2)c2cc3[n+](cc2c1O)CCc1cc2c(cc1-3)OCO2 | ferric reducing power, FRAP | – | 10 µg/mL, 30 min | higher is greater reducing power | FRAP absorbance | 0.781 ± 1.23 a.u. |
| O=C1NC(=O)C(C2CCOc3cc(Oc4ccc(C(F)(F)F)cc4Cl)ccc32)S1 (stereo not drawn) | measured: total GLP-1 | colonic crypt cultures, wild type, mouse, ex vivo | 1 µM, 2 h | reference: vehicle | GLP-1 release | 2.8 ± 0.42 fold change |
| Nc1nc2cnc(C(=O)N3CCOC[C@@H]3c3ccc(C(F)(F)F)cc3)cc2c2c1COC2 | immunohistochemistry | human, tumour biopsy | concentration not given, cycle 2 day 1 | direction not given | SDMA H-score | 0 |
| C=C1C[C@@]23CC[C@H]4[C@@](C)(CCC[C@@]4(C)C(=O)O[C@@H]4O[C@H](CO)[C@@H](O)[C@H](O)[C@H]4O)[C@@H]2CC[C@]1(O[C@@H]1O[C@H](CO[C@H]2O[C@H](CO)[C@@H](O)[C@H](O)[C@H]2O)[C@@H](O)[C@H](O)[C@H]1O[C@@H]1O[C@H](CO)[C@@H](O)[C@H](O)[C@H]1O)C3 | immunoblot | C57BL/6N mice, high-fat diet, brown adipose tissue | drinking water, 0.2 g/L, 16 weeks | reference: control | UCP1 protein level | increased |
| FC(F)(F)c1ccccc1/N=c1\oc2ccccc2cc1-c1ccccc1 | – | rat, formalin paw oedema | intraperitoneal, 10 mg/kg, 1 h | – | oedema reduction | 20.2 ± 1.7% |
| COc1ccc(OC)c(C(=Cc2ccc(O)c(OC)c2)C(=O)NCCc2ccc(O)cc2)c1 | – | C57BL mice, MPTP/p Parkinson model | 75 mg/kg, 8 weeks, rotarod 25 rpm | reference: MPTP/p vehicle | rotarod latency | increased |
| C[C@@H](O)[C@@H]1NC(=O)[C@H](CCCCN)NC(=O)[C@@H](Cc2ccc(NC(N)=O)cc2)NC(=O)[C@H](Cc2ccc(NC(=O)[C@@H]3CC(=O)NC(=O)N3)cc2)NC(=O)[C@H](NC(=O)[C@H](Cc2ccc(Cl)cc2)NC(=O)CN2CCN(CC(=O)O)CCN(CC(=O)O)CCN(CC(=O)O)CC2)CSSC[C@@H](C(=O)N[C@H](Cc2ccc(O)cc2)C(N)=O)NC1=O [gallium-68 labelled] | PET/CT | neuroendocrine tumour patients, lymph node lesions | 60 min | – | SUVpeak | 12 ± 19 |
| CC[C@H](C)[C@H](N)C(=O)N1CCC[C@H]1C(=O)NCC(=O)NCC(=O)O | diketopiperazine formation, transition state theory | 1-propanol | 70, 80, 90 °C, 0.5% acetic acid | – | ΔS‡ at 298.15 K | -64 ± 6 J/(mol·K) |
| COc1c2c(cc3oc(C)cc(=O)c13)O[C@H](C(C)(C)O[C@@H]1O[C@H](CO)[C@@H](O)[C@H](O)[C@H]1O)C2 | analgesia | mouse | oral, 4 mg/kg, 2 h | – | hot plate latency | 10.1 ± 1.44 s |
| CCCCCCCOC(=O)Cc1c(C)n(C(=O)c2ccc(Cl)cc2)c2ccc(OC)cc12 | hot plate test | BALB/c mice | 75 mg/kg, 120 min | – | latency of nociceptive response | 16.5 ± 1.14 s |
| COc1cc(CN2CCN(c3ccc(C(F)(F)F)cc3)CC2)c2cc3[n+](cc2c1O)CCc1cc2c(cc1-3)OCO2 | ferric reducing power, FRAP | – | 10 µg/mL, 30 min | higher is greater reducing power | FRAP absorbance | 0.004 ± 0.56 a.u. |
| CCCc1nc2cc(C(=O)N3CCC4(CC3)CC(=O)c3cc5c(cc3O4)OC(C)(C)CC5)cc(C)c2[nH]1 | measured: F4/80, Cxcl2, Cxcl10 | C57BL/6J male mouse, HFD-induced NASH, liver | intragastric, dose not given, daily | reference: vehicle | mRNA level | decreased |
| CCCCCCOC(=O)Cc1c(C)n(C(=O)c2ccc(Cl)cc2)c2ccc(OC)cc12 | hot plate test | BALB/c mice | 75 mg/kg, 90 min | – | latency of nociceptive response | 15.6 ± 1.51 s |
| Cc1cc(C)nc(NC(=S)N2CCN(Cc3ccc(C(F)(F)F)cc3)CC2)c1 | – | NOD.SCID mice MDA-MB-468 orthotopic xenograft, tumour | dose not given | – | serine concentration | no effect |
| COc1ccc(C2CC(c3ccc(C)cc3)=Nc3ccccc3S2)cc1OC (stereo not drawn) | – | rat, normal, overnight fasted | oral, 10 mg/kg, 30 min, oral glucose tolerance test, added: glucose 3 g/kg oral | – | blood glucose | 119 ± 4.57 mg/dL |
| NC(=O)CC[C@H](N)C(=O)N1CCC[C@H]1C(=O)NCC(=O)NCC(=O)O | diketopiperazine formation, transition state theory | 1-propanol | 70, 80, 90 °C, 0.5% acetic acid | – | ΔS‡ at 298.15 K | -31 ± 5 J/(mol·K) |
| CC[C@H]1[C@@H](O)[C@@H]2[C@H](CC[C@]3(C)[C@@H]([C@H](C)CCOS(=O)(=O)[O-])CC[C@@H]23)[C@@]2(C)CC[C@@H](O)C[C@@H]12.[Na+] | EchoMRI | ob/ob NASH mouse model | oral, 10 mg/kg once daily, 8 weeks | reference: body weight | whole-body lean mass | 33.6 ± 0.8% |
| CC/C=C\C/C=C\C/C=C\C/C=C\C/C=C\CCCCOC(CC)C(=O)O (stereo not drawn) | – | ob/ob mice | dose not given, 4 weeks | reference: control | HbA1c change | -47% |

Excerpt of the above:
| Structure (SMILES) | test | test system | conditions | how to read | endpoint | result |
| --- | --- | --- | --- | --- | --- | --- |
| Cc1cc2c(cc1C1(c3ncc(C(=O)O)cn3)CC1)C(C)(C)CCC2(C)C | RNA sequencing, measured: Mpeg1 | rat, brain | dose not given, 24 h | reference: vehicle | log2 fold change | 0.17 |
| COc1cc(/C=C/C(=O)OCCCC[P+](c2ccccc2)(c2ccccc2)c2ccccc2)ccc1O | immunoblotting | rat liver mitochondria | 10 µM, 15 min | reference: untreated | cytochrome c release | ~2.5 fold |
